Assay results pooled from the literature.
Each numbered part is a random draw from the data of one study; scales do not carry over between parts.

Block 1
Target: Hepatocyte nuclear factor 3-alpha (Foxa1, Mus musculus, UniProt P35582, residues 1-468, full length assumed)
Technique: EMSA with sequencing
Form: double-stranded DNA, one strand shown
Matrix: in vitro
Concentration: 10 and 20 nM
Setting: whole designed probe, mean of two concentrations, ends assumed
Baseline: negative control set to 0
Direction: higher = stronger binding
Measurement: normalised bound fraction
Residues (chain): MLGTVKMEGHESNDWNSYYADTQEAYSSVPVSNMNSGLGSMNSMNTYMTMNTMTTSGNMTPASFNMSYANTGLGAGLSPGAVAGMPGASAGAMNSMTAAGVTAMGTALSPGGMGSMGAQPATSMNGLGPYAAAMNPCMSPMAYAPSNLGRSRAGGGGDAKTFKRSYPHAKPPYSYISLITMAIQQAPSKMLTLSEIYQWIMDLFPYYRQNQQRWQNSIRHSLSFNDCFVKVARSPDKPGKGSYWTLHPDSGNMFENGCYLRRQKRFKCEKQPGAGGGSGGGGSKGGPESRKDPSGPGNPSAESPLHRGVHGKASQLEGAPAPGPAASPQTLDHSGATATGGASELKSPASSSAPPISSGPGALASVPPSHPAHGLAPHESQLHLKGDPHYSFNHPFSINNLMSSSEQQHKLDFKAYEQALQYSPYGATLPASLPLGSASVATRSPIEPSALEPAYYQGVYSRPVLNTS
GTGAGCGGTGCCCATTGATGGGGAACTGGCCCAGGGGTTGGGGACCCCTAATATATAATGATTCACATTATATATCAAAAGTAAATCAAAAAATTATAACTACAGCTAATTAAAAACTATGTAATCTTACAGATGAAAATAAGATATTATGCAGCACTATAATTAGCTGCTGTTAAGTGATGATGTTGTAGAGAGGTTTTAATACAAATAAAACTTGGATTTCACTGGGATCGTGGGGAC: 0.239 ratio
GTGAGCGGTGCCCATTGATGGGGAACCTCAGATGGAACAGATGACCAGGGGTGACTCAGGACAGAGCAGGTGACCAGGGGAACAGATGTGAACTGCTGATTAGAACTGGTGGAAAAAGTTGTTTACTGAAACTATGGGCGAGGAGAATGAGGAAGTTAAACTTTAAAATGGAGAACAAAGAACTGAACATACTGACATACTGATTCTTTGAAGAGAAATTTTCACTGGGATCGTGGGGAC: 0.116 ratio
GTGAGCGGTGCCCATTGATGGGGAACAACAGAATTATGCCTTGCATACTGAGTAAGTGATGACATTCAGCAGAACACCCACTATGGAGAGCACCAGATTATAGCTGTCCTTAAACTGCTAGATTGCTTTGCCCTGATAAAAGAAAAAATGTTCATAGAGTTTTCTAAGTCTCTTTTGTGTGGTTAGTTTATTTGCTTGTTGTATGTGAATAAGAAAGATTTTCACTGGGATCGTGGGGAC: 0.177 ratio
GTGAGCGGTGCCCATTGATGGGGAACTCCCTTTGTTCTACTCCTATACTCAAGTAATTCTGGAACACAGGCCATTTCACAAAGATTCTCTTCCCTATACACCAAAATTACCTTTATTTCTAGATTACTTAGCAAGCTTCTACATATCATTTCAGGTTTAGTTCTAACAAGCCTTTTCTTATGAACCTTTGTTTGATCTTCCTCCCTCCATCCTCTCCTTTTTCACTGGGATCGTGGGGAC: 0.136 ratio
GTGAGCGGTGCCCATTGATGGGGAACTCGGCCAGCCTGGCTTCTGCGCCCCGCCAGGAGGTCGCGGAGCGGAGCGCGGCCAGGAAGTGAGCTGAGAGTGACAGCTCCCCCCACGCTGTTTGTTTATTCTCTCCACACAATGACTCATTCCTGGCTCTTCTTTCTTTCGGGAGGAGGGGAGAAAGGAGCGGGAGGGCGGGCGGGCAGGGGAGAGGCAGGCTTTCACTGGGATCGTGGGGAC: 0.322 ratio
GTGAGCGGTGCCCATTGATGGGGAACTCCACAGTAGAAACGAAGGAGATGACAGATACCCCGGCACCAAAACTGACACCAGGTTTTTGTTGCTTCTTCCACTATATAATGGAGAAGTTCTGTTTACTCTAGATGTGCATCTACTGTTAACATTGGCTTAAGGAAACCCAAGAAACTGAATCACATCAAAGGTATGTCAGAGGTATGTGAACCAGAGCAATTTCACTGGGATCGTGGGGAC: 0.255 ratio
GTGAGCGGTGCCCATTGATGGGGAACATCTTTGCTGGGGTTGGGCCATAGCTTGATGGGTATTTGTTGAATGACTAATAAATGACTTATAGGCTAACAGCCTCCTTTGAAGTAGGCTGAGCAATCTAACCATTAAGTGGAACATGGTGTCTAGGTTACACAGCTCACTCATCTGCTAATCACTGGGGCACACTGCTGGTTATTATTACCTGAGACCCTGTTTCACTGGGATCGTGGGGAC: 0.117 ratio
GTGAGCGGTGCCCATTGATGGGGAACCTGCAGCACTACAGCCCCTTTCTAGGACATCCCTGAAGGATGCAGTGAAGGGAAATCTTCCCAGTGGGCAGAACTTCCAGCAGTGCACCTGGTTGTGTACTTTGCATGGAAGGAGAAATAATCAAATGTGTGATTACATACTGATTCATGGGCTGCAGCCAATGGTTTGGCTGGATGGTCAGGGAGGTCATTCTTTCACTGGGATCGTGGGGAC: 0.112 ratio

Block 2
Target: RNA binding protein fox-1 homolog 2, RRM domain, GST-SBP tag (RBFOX2, Homo sapiens, UniProt O43251-10, residues 100-194)
Technique: RNA Bind-n-Seq
Form: RNA
Matrix: in vitro
Concentration: 365 nM
Setting: natural RNA segment, single round, ends assumed
Baseline: no-protein control
Direction: higher = stronger binding
Measurement: RBNS enrichment (R)
Construct (chain): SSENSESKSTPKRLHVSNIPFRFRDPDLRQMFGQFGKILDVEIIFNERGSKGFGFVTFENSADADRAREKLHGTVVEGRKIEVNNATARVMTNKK
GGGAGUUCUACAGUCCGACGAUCGCUUGCCACAAUGAUUCCGUGUUUUUACAGGGCAUUCAACUGCUGCAAAGGUUAACAUAUAAUGCCAAAUUUUUCCAUUCUGGUGCCCAUAUAGAUGACUUAAUUACAUUUGGAAUUCUCGGGUGCCAA: 0.389
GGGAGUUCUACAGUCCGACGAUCCUACAGCUAUUUGAGUCCCUAGACCUUAUUUGAUCAUAUUCAAAAGAUCAUUUCCCAUGCUUGCUUUGAUUUGGUCCUCAAUAAAUUAAAAUGAUCCACACUUUCACACUUGGAAUUCUCGGGUGCCAA: 1.98
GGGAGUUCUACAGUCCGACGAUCAGUGCUGAGGGCCAGUGUUGACCCACACUACCCUCCCUUGACCAGCUGUCUGGGACCGGAAACCAGCUUUGUCUCCAGGUAGAGACAACAUCCUGUGACUGCCAGGCAGAUGGAAUUCUCGGGUGCCAA: 0.315
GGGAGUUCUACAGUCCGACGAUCCACAGAUGGUCGCUGCAAGCAGAUCCCUCUGAGCCUCUCUUCUGCUAGUGCCUGGCUUGCCACAUGGAAAGCAAGCACAAGGGAGCAGUAUUCCGUAGCAUAUGAUAGCAUGGAAUUCUCGGGUGCCAA: 0.976
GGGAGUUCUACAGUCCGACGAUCUUGACCUUUGGACGCCACCUGUAAUCACUCUGGAUGGUGUCUGUGGAGUUCAGGUUUAUUUUCUAUUUAAAUGAACUAAAAGCCAGCAUCCUGCCGGGCGUGGUGGCUCAUGGAAUUCUCGGGUGCCAA: 0.326
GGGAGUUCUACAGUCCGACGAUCCAGGGACACCAAGGCCAAUGGGUUAUCUGGACCAAAGGUGGGGUGGAGGGCCUAGGUGGUAUCUCCGGCCCAGAUGUGAAUACCUCCAUAUUCCCUGUUGGUUCCUGUUUUGGAAUUCUCGGGUGCCAA: 0.231
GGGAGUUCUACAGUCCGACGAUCGUGUUUUUAAAUGGAAGGGAUUUGUGGCAUCCACUUGCUGAGCGGUGAACAGAGCGAGACGCAGUUAUGUGUGCACCGGCAGAUACUGACACUGAUGGCUGACAGUGUGUUGGAAUUCUCGGGUGCCAA: 2.33
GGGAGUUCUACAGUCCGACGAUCUUAACAUUUAGUAAAGUGAUGUAGAUCCAAUGUCAGGAAAGGAAGGACUGUGUUACUGUGCCUCCUCUGACUCAUGUGCUUUUCAGCAUAAUAGACUUAUUUAAUAUUAAUGGAAUUCUCGGGUGCCAA: 0.623
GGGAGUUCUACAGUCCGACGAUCCCCUUGCUUCAACCUCCCCAGGUGGGGGACCUGGCCUCUGCCUAAAUGCUUCUGGAGACGGAAACAUAUUCCCUACAGGGAAUGAAGCUUCUCAGAGAAACUGCCGAAAGUGGAAUUCUCGGGUGCCAA: 0.213
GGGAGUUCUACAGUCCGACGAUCCCUGGCACUGCUUGGAGGUGUGCAGAGCGGAAGCAAGUGGAGCAUCCGGGGCAUUCCUGUUGACCCAUCAGCCCCUUCUGUUCUGGCGGCAGGGGCCUUGGGGCUCCUGGUGGAAUUCUCGGGUGCCAA: 0.505
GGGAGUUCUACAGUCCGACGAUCGAAGAUCUUUUUAUGCCACUGUUUCUGCUGUCUUGGUUCUGACACCCCUGUCUGGUGAUAUGCUAUACCCCAGUGCUGCCUACACGUGCUUUAGCUGUAGAGCUGGGUAUUGGAAUUCUCGGGUGCCAA: 0.773
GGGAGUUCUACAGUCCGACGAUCCAGUUGUCAUGUCUUUUGGUUGUGAGCCUAUGCACCUUACCUUUAAUGGUUGAACCAUCUUUUCAGCCCAAACAGUUUAUUUCUAAAAAGUAGAUUUAAUGCUAGGGGCCUGGAAUUCUCGGGUGCCAA: 0.826

Block 3
Target: RING finger protein unkempt homolog, zinc fingers 1-6, SBP tag (UNK, Homo sapiens, UniProt Q9C0B0, residues 30-357)
UniProt Q9C0B0, sequence (30-357, looked up): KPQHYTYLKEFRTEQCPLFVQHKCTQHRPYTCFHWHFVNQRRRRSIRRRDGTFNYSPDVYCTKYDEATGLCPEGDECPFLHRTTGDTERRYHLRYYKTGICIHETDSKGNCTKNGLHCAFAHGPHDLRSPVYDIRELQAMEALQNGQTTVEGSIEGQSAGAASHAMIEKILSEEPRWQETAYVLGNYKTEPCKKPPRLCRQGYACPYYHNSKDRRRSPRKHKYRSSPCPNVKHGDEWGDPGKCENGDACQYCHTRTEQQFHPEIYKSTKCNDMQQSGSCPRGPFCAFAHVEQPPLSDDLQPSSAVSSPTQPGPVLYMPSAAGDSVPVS
Technique: RNA Bind-n-Seq
Form: RNA
Matrix: in vitro
Concentration: 100 nM
Setting: RNA with constant flanks, ends assumed
Baseline: input RNA pool
Direction: higher = stronger binding
Measurement: bound/input enrichment
GGGAGUUCUACAGUCCGACGAUCGGCCUCCAACAGGCAAAUUCAGGGAGGACCGGUUUCAGGGAAUAUAAAUUUAUUUAAUAUCCGUGGUCUUUAAGUAUAAACUUGAUGUAAUUGGUUUGGGAGGGGGCAGUGAUGAUGACUCAACAGAGGAUUGAGCAUCA: 0.823 ratio
GGGAGUUCUACAGUCCGACGAUCCUGUUUUGUGAAACAUGUCUACCCAGAAAAGCCGCAUUCUAUAAAUACUAUUAAACAACUCCGCUAUAUUAUUUUUAAGUAUUAAAUUAUAUGUCAAGCAGUUAAAGUGAAUUUCAGAGUCAACAGAGGAUUGAGCAUCA: 0.553 ratio
GGGAGUUCUACAGUCCGACGAUCAGAGGAUCCGGUUCCAUCCUUUACGUGUUUAAAAAAAAGCAUAAAAACAUUUUAAAAACACCGAAAAAUUCAGCAAACCAUUUUUAAAGCCGAAGAGGGUUUCCGGCCGAAAAACAUAUUCAACAGAGGAUUGAGCAUCA: 0.499 ratio

Block 4
Target: Histone acetyltransferase KAT6A, winged helix 1, GST fusion (KAT6A, Homo sapiens, UniProt Q92794, residues 1-85)
Technique: protein binding microarray
Form: double-stranded DNA, one strand shown
Matrix: in vitro
Concentration: not given
Setting: 8-mer, flanks averaged, mean of 2 arrays, mostly near background
Baseline: not given
Direction: higher = stronger binding
Measurement: E-score
Construct (chain): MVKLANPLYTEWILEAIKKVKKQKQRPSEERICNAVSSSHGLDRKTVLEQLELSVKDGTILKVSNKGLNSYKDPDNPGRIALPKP
ACCTGCGT: 0.0117
GGCAACGA: 0.0709
AGGGGGGG: -0.236
CTTAGATA: -0.0827
CCGAGAAC: 0.00762
TGTTCCAA: -0.229
ACGTAACG: 0.0677
CCCGTTTA: 0.154
ATGTGCCC: 0.0307
ATCAGGCC: -0.0552
TACACTAA: -0.11
ACACATGA: -0.108
ATCAATCC: -0.0612
AAACTACC: -0.0507
CTAAGTGA: -0.104
CAAACGTA: -0.0844
CAGGTAAC: -0.11

Some of these lines once more (block 4):
TGTTCCAA: -0.229
ACGTAACG: 0.0677
CCCGTTTA: 0.154
ATGTGCCC: 0.0307
ATCAGGCC: -0.0552
